Published values of several laboratories.
Numbered parts are unrelated; each lists some results of a single study. Substitutions count along the parent as printed.
Chain of UniProt Q9NRH2 (whole entry, looked up): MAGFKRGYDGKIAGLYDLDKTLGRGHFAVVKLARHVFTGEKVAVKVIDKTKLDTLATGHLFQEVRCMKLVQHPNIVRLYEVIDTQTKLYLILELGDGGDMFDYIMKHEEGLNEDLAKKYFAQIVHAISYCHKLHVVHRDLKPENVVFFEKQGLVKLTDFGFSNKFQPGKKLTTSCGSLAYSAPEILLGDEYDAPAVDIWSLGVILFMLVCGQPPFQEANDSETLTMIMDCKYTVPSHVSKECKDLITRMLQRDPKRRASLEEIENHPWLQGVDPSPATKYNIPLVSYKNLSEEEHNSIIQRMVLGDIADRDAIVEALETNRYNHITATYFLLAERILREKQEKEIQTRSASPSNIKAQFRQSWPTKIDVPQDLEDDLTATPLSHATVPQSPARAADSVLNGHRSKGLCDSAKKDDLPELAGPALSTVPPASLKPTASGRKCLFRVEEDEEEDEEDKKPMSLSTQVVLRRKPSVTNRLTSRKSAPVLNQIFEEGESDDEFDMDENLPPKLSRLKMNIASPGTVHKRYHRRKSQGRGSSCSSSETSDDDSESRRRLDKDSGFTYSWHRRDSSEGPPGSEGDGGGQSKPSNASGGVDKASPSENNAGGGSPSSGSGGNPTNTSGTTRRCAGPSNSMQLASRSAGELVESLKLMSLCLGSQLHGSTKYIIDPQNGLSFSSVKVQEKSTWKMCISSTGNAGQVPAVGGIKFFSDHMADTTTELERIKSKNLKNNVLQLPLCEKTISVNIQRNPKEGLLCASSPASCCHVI
Chain of UniProt Q6PHR2 (whole entry, looked up): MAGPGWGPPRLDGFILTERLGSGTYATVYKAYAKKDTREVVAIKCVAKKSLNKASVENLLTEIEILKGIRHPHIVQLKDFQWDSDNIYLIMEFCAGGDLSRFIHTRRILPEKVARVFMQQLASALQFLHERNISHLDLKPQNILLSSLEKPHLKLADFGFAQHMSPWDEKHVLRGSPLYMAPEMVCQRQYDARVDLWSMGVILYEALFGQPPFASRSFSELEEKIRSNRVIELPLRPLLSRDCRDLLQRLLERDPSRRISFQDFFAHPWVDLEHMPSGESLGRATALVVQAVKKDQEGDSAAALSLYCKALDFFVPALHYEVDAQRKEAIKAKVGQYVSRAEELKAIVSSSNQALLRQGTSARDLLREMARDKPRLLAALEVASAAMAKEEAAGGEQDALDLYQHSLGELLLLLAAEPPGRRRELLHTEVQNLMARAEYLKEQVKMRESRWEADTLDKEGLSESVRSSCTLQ
Chain of UniProt O75582 (whole entry, looked up): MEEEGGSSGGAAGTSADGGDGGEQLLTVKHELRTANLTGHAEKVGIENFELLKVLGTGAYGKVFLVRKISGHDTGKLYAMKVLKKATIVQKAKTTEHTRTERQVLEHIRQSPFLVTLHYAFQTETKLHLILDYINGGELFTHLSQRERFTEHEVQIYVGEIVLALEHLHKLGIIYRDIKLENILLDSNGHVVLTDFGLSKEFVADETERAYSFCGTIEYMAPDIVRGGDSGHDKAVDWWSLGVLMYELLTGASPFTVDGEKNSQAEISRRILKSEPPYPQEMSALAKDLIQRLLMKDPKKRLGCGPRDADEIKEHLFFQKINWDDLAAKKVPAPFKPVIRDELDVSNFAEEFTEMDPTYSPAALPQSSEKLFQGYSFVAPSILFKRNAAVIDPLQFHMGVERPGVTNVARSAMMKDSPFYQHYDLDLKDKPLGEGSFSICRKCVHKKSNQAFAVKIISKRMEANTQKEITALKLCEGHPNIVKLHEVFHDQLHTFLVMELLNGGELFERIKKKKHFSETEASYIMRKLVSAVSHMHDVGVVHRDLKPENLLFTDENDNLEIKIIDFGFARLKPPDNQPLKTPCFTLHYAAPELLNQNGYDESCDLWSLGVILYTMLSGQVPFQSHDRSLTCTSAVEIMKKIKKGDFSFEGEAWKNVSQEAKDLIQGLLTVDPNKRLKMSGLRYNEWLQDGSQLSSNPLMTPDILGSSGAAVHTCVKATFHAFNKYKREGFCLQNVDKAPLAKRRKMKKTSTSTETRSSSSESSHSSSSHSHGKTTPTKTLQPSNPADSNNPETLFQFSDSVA
Chain of UniProt O00444 (whole entry, looked up): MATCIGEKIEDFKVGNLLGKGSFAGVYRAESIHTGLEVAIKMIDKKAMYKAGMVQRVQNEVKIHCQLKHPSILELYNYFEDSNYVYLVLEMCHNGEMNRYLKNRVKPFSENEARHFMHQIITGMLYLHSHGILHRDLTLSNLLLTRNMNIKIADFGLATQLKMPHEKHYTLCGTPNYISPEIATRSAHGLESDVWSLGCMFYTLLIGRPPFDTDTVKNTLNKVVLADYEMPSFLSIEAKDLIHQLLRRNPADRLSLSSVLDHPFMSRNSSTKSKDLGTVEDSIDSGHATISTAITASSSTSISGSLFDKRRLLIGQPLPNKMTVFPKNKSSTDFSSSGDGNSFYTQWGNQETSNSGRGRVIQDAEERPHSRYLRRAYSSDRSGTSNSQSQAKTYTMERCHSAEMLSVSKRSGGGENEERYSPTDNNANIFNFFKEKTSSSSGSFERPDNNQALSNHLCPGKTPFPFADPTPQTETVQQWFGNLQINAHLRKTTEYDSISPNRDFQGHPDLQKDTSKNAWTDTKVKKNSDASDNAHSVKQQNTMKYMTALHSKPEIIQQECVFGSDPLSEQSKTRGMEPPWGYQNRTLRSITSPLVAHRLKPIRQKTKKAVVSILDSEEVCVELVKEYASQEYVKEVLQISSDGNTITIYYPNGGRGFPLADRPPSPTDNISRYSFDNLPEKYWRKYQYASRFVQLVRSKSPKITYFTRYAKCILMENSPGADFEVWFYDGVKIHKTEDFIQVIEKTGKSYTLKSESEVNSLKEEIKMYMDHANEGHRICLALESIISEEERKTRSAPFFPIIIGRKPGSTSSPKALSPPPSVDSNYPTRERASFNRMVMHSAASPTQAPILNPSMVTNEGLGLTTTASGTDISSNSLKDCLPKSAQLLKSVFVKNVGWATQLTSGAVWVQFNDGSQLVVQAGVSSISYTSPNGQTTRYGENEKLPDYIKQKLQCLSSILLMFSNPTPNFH
Chain of UniProt P29597 (whole entry, looked up): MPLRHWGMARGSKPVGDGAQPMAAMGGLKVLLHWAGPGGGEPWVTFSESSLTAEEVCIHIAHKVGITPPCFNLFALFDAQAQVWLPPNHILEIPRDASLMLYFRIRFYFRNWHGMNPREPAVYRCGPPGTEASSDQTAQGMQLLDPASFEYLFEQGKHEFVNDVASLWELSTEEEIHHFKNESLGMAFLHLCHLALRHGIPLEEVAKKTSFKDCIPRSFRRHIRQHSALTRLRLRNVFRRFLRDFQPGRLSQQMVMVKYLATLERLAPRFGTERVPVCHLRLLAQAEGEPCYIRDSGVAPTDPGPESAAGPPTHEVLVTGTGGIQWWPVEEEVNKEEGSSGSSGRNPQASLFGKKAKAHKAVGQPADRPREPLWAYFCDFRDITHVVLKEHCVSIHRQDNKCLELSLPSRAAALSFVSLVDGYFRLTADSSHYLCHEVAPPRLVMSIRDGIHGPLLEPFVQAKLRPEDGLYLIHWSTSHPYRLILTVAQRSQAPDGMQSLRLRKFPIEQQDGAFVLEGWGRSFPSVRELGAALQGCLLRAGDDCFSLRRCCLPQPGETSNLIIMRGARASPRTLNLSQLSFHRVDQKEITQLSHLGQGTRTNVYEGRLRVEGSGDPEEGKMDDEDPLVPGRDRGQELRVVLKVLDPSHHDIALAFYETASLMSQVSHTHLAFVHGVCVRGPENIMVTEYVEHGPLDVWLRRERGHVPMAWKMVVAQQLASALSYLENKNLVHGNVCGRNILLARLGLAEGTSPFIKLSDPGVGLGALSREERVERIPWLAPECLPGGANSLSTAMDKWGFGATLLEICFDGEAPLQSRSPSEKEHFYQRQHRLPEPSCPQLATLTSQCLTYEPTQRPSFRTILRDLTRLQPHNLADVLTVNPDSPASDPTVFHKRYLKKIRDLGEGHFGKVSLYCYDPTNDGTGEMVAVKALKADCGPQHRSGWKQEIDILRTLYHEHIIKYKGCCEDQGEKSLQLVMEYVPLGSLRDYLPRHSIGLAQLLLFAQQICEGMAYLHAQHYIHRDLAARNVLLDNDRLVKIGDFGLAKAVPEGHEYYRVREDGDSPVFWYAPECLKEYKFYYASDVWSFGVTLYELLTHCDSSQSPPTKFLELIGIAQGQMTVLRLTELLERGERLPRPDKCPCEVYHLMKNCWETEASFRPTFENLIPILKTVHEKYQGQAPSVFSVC

Sample 1
Target: Protein kinase C alpha type (PRKCA, Homo sapiens, UniProt P17252)
Read-out: enzyme activity
Action: inhibitor
Tested at: 0.5 µM
Baseline: control
| SMILES | remaining activity [%] |
| --- | --- |
| Cc1cccc(-c2[nH]c(C(C)(C)C)nc2-c2ccc3c(c2)OCO3)n1 | 99.6 |
| O=C(CCCc1ccc(-c2ccccc2F)cc1)Nc1ccc(O)cc1 | 100 |
| Nc1ccc2ncnc(NCCc3ccc(Oc4ccccc4)cc3)c2c1 | 103 |
| Cc1nc(-c2ccccc2)c(-c2ccncc2)o1 | 98.3 |
| Cn1c2ccccc2c2c3c(c4c5ccccc5n(CCC#N)c4c21)CNC3=O | 7.58 |
| Nc1ncnc2n[nH]c(Nc3ccc(F)cc3)c12 | 98 |
| C#Cc1cccc(Nc2ncnc3cc(OCCOC)c(OCCOC)cc23)c1 | 88.6 |
| Cc1ccc(NC(=O)c2ccc(CN3CCN(C)CC3)cc2)cc1Nc1nc(-c2cccnc2)cs1 | 110 |
| O=c1c2ccccc2[nH]c(=S)n1CCN1CCC(=C(c2ccc(F)cc2)c2ccc(F)cc2)CC1 | 73.1 |
| NCCNc1ncc(C(N)=O)c(Nc2cccc(C(F)(F)F)c2)n1 | 60.9 |
| O=C1NC(=O)C(c2cn(CCCn3ccnc3)c3ccccc23)=C1Nc1ccccc1 | 32 |
| COc1cc2nccc(Oc3ccc(NC(=S)NC(=O)c4ccccc4C)cc3)c2cc1OC | 91.3 |
| COc1ccc(C(=O)Nc2sc3c(c2C(N)=O)CCCC3)cc1OC | 96.6 |
| Cn1sc(=O)n(Cc2ccccc2)c1=O | 71.8 |
| CO[C@H]1C[C@@H]2CC[C@@H](C)[C@@](O)(O2)C(=O)C(=O)N2CCCC[C@H]2C(=O)O[C@H]([C@H](C)C[C@@H]2CC[C@@H](O)[C@H](OC)C2)CC(=O)[C@H](C)/C=C(\C)[C@@H](O)[C@@H](OC)C(=O)[C@H](C)C[C@H](C)/C=C/C=C/C=C/1C | 108 |

Sample 2
Target: JUN, bZIP domain (human)
Technique: DHFR protein complementation
Sample: yeast
Setting: single substitutions, most at no-binding floor
Baseline: wild-type JUN-FOS pair
Reading: higher = stronger binding
Parent: JUN, bZIP domain (human); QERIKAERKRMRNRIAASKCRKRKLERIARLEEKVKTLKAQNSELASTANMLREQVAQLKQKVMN; partner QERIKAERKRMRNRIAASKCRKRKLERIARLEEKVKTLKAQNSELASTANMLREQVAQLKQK
| Substitution | binding fitness |
| --- | --- |
| N42Q | -0.292 natural log |
| V35W | -1.01 natural log |
| A40F | -0.425 natural log |
| R53L | -0.854 natural log |
| A29I | -0.271 natural log |
| E32H | -0.819 natural log |
| A46D | -0.913 natural log |
| A46R | -0.178 natural log |

Sample 3
Target: Sal-like protein 4, full length isoform B (SALL4, Homo sapiens, UniProt Q9UJQ4-2, residues 1-616)
Technique: universal PBM
Molecule type: double-stranded DNA, one strand shown
Sample: in vitro
Tested at: not given
Setting: 8-mer, flanks averaged, mean of replicates
Reading: higher = stronger binding
| Sequence | E-score |
| --- | --- |
| AAGGAGAC | -0.0703 |
| AGCAAGCA | -0.143 |
| GCCTAATA | 0.14 |
| CCCCGCGG | -0.411 |
| CAGAGTGC | -0.18 |
| ACTCAGCT | -0.0387 |
| CCGTCCCG | -0.273 |
| CATGGACC | -0.208 |

Sample 4
SMILES: O=C(NCc1ncc(C(F)(F)F)cc1Cl)c1ccc2c(c1)C1(CCS(=O)(=O)CC1)[C@H](C1CC1)N2S(=O)(=O)c1ccc(F)cc1
Read-out: cell-free assay
Technique: competition with immobilised ligand
Tested at: 1 µM
| target | remaining binding [%] |
| --- | --- |
| Tyrosine-protein kinase ABL1, non-phosphorylated (ABL1, Homo sapiens, UniProt P00519, T315I) | 57 |
| SNRK (Homo sapiens, UniProt Q9NRH2) | 77 |
| PLK4 (Homo sapiens, UniProt O00444) | 92 |
| PKN2 (Homo sapiens, UniProt Q16513) | 70 |
| Ribosomal protein S6 kinase alpha-5, N-terminal kinase domain (RPS6KA5, Homo sapiens, UniProt O75582) | 95 |
| FLT3 (Homo sapiens, UniProt P36888, D835V) | 70 |
| Non-receptor tyrosine-protein kinase TYK2, JH1 (TYK2, Homo sapiens, UniProt P29597) | 92 |
| ULK3 (Homo sapiens, UniProt Q6PHR2) | 85 |
| AKT3 (Homo sapiens, UniProt Q9Y243) | 100 |
| EPHA8 (Homo sapiens, UniProt P29322) | 97 |

Excerpt of the above (sample 1):
| SMILES | remaining activity [%] |
| --- | --- |
| Cc1nc(-c2ccccc2)c(-c2ccncc2)o1 | 98.3 |
| COc1ccc(C(=O)Nc2sc3c(c2C(N)=O)CCCC3)cc1OC | 96.6 |
| Cn1sc(=O)n(Cc2ccccc2)c1=O | 71.8 |
| O=C1NC(=O)C(c2cn(CCCn3ccnc3)c3ccccc23)=C1Nc1ccccc1 | 32 |
| O=C(CCCc1ccc(-c2ccccc2F)cc1)Nc1ccc(O)cc1 | 100 |
